Literature values, collected from citations in different studies.
Each line is one published result; not all experiments were run side by side. ± marks the error that the study gave.

By UniProt entry, the sequences of proteins in these tests, tags left out. Where a name states a change or a piece, a line headed by the entry shows the natural chain unless it says otherwise. Residues count along the entry.
UniProt Q2FV99, 60-206 limits assumed: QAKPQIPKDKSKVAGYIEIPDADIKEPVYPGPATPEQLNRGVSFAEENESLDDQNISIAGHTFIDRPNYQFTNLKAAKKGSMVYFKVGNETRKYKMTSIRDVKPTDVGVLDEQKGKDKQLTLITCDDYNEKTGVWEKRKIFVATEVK
UniProt P41143, whole entry: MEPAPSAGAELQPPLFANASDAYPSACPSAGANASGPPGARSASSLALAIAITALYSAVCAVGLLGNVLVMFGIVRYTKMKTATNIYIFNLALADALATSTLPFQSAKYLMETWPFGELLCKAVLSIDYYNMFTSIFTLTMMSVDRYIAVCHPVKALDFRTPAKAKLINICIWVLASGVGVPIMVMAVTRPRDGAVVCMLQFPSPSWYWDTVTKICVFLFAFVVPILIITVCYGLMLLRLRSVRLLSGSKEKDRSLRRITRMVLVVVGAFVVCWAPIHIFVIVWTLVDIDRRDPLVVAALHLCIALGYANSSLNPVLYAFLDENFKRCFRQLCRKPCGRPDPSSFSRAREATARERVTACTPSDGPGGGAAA
UniProt Q8VSX2, 1-224: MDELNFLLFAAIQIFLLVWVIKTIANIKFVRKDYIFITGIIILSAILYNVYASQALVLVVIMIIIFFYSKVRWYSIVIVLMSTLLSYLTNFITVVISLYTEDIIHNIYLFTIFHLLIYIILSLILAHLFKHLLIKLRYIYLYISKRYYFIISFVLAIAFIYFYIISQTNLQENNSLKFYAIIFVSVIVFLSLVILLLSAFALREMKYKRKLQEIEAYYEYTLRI
UniProt Q00987, whole entry L33E, looked up: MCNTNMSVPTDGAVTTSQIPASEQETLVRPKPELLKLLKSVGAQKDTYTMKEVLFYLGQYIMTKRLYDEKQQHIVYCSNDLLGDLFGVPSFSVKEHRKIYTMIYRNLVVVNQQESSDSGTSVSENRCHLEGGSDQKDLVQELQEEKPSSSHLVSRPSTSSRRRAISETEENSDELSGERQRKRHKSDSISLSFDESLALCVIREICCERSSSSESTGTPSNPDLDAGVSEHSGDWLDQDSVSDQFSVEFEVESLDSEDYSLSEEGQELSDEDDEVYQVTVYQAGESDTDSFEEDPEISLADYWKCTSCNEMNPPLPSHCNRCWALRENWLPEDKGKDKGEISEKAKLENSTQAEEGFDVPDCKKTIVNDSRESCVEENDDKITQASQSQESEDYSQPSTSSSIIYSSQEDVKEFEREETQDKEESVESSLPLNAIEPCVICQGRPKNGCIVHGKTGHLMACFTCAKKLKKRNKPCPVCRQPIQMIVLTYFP
UniProt P33535, whole entry: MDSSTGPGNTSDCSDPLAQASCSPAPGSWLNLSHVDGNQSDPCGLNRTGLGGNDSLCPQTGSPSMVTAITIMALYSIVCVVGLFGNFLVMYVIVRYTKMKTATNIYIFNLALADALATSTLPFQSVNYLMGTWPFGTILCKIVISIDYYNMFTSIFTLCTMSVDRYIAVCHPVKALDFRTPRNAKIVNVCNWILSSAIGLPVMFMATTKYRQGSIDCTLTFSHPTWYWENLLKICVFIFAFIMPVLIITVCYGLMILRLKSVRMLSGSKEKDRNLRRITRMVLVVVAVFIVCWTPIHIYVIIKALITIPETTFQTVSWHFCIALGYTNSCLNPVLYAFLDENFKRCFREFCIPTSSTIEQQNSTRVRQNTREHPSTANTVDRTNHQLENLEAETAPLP
UniProt P42866, whole entry: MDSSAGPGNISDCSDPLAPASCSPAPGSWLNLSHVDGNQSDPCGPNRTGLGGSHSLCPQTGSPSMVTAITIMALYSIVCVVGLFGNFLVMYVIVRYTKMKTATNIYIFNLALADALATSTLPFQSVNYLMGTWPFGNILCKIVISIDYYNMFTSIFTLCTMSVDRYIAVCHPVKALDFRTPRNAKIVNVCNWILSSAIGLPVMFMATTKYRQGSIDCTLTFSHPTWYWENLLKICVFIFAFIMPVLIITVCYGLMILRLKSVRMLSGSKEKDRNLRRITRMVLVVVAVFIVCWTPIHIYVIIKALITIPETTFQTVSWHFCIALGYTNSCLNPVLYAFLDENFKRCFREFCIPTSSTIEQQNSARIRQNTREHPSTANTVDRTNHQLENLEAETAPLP
UniProt Q8IVW8, 103-549 limits assumed: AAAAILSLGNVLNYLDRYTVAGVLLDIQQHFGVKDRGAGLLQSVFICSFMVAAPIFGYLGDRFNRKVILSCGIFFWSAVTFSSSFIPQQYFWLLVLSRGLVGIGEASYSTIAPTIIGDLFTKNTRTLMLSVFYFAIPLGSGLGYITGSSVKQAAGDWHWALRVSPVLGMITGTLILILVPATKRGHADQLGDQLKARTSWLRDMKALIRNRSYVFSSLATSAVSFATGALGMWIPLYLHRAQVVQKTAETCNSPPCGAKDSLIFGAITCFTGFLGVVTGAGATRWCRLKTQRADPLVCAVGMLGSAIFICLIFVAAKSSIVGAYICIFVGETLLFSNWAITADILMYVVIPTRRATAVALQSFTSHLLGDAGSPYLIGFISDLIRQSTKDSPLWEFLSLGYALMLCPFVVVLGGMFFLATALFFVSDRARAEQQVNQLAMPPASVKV
UniProt P28335, whole entry, looked up: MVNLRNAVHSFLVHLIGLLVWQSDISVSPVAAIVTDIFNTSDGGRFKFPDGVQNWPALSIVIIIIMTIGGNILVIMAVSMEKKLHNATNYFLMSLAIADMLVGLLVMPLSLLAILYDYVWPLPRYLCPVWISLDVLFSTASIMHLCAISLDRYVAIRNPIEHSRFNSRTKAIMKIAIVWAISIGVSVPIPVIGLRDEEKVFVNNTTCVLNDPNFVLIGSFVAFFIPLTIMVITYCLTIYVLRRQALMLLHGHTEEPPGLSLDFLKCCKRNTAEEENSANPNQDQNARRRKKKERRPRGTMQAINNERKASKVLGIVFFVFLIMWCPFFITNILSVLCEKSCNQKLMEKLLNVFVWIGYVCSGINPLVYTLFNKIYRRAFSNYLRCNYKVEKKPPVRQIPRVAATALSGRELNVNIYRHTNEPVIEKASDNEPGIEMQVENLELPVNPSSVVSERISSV
UniProt P49720, whole entry, looked up: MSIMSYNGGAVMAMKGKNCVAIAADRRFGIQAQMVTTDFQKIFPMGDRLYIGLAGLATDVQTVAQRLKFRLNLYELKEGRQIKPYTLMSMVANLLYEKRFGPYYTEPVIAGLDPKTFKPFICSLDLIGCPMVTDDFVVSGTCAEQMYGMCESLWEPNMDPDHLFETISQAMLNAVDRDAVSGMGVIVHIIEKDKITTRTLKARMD
UniProt Q99436, whole entry, looked up: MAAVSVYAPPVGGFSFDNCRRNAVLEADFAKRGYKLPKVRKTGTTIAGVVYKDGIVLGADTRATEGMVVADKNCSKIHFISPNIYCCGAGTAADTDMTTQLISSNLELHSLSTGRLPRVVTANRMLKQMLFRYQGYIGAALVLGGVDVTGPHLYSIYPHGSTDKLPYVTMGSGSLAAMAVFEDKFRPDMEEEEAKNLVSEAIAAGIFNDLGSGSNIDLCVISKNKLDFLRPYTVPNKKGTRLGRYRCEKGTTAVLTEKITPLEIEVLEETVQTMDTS
UniProt P33533, whole entry: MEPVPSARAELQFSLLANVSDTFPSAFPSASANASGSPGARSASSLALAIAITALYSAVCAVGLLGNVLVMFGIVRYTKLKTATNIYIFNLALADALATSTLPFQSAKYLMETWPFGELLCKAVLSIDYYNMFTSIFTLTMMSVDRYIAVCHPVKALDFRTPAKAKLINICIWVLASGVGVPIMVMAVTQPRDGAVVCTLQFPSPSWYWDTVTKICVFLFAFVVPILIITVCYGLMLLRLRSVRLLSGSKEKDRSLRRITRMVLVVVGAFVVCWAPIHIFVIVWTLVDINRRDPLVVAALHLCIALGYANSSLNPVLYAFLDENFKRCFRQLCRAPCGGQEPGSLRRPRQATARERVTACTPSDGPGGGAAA
UniProt Q86X55, whole entry: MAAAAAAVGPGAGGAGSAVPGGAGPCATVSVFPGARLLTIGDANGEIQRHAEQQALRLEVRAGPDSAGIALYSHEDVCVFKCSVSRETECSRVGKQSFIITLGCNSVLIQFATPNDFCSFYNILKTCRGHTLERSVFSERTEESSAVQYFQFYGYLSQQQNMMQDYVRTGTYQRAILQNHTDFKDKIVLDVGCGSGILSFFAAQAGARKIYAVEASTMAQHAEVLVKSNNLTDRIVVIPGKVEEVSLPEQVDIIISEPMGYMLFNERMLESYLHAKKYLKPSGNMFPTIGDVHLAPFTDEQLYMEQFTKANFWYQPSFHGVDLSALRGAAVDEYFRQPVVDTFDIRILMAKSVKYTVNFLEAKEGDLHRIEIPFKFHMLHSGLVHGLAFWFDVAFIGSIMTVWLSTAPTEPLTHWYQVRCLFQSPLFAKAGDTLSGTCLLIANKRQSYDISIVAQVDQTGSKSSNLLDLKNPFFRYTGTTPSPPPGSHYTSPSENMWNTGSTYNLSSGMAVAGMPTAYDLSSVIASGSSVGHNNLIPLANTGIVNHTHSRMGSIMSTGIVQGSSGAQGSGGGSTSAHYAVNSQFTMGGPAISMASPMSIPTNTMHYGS
UniProt Q96RJ0, whole entry: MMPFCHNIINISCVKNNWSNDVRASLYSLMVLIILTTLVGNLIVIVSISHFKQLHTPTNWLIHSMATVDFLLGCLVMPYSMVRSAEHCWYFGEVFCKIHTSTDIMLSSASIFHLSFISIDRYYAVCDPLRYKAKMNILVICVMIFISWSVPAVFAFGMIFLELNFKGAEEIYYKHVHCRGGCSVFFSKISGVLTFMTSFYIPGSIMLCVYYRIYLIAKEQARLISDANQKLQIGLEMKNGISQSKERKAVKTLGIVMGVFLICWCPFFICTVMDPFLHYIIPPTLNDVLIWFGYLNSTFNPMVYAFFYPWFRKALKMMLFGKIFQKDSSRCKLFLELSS

SMILES	target or system	test	system	setting	endpoint	value
CCOc1c(SSc2cnn(-c3ccccc3)c(=O)c2OCC)cnn(-c2ccccc2)c1=O	srtA (Staphylococcus aureus, UniProt Q2FV99)	inhibitor	–	–	IC50	1.5 ± 0.4 µM
Ic1ccc(CSCn2ccnc2)cc1	OPRD1 (Homo sapiens, UniProt P41143)	–	–	–	Ki	> 10 µM
C[C@H](N)C(=O)N[C@@H](CO)C(=O)N[C@@H](C)C(=O)N[C@H]1CSC(=O)[C@H](Cc2ccccc2)NC(=O)[C@H](Cc2ccc(O)cc2)NC(=O)[C@H](C)NC(=O)[C@H](C)NC1=O	Accessory gene regulator protein C (Staphylococcus epidermidis, UniProt Q8VSX2)	antagonist, reporter strain	–	–	IC50	0.00087 µM
COc1ccc(CNC(=O)c2ccccc2CNCc2ccc3c(c2C(=O)O)OCO3)cc1	Gag-Pol polyprotein, integrase (gag-pol, Human immunodeficiency virus 1, UniProt P12497, C1203S/F1286D/F1332H)	binding, surface plasmon resonance	–	–	Kd	> 2000 µM
CC(C)Oc1cc(NC(=O)[C@@H](Cc2ccccc2)NC(=O)c2ccc(N)c(OCc3ccccc3)c2)ccc1C(=O)NCC(=O)O	E3 ubiquitin-protein ligase Mdm2, with p53 (MDM2, Homo sapiens, UniProt Q00987, L33E)	p53-MDM2 interaction, inhibitor, fluorescence anisotropy competition	–	–	IC50	9.2 µM
N[C@@H](Cc1ccc(O)cc1)C(=O)N1Cc2ccccc2C[C@H]1CN[C@@H](CC1CCCCC1)C(=O)N[C@@H](Cc1ccccc1)C(=O)O	Oprm1 (Rattus norvegicus, UniProt P33535)	–	–	–	Ki	1.05 ± 0.01 µM
c1ccc2c[n+](CCCCCCCC[n+]3ccc4ccccc4c3)ccc2c1	BJ fibroblasts	cytotoxicity, MTT	–	–	IC50	1010 µM
COc1cc(C(=O)N[C@@H]2CC[C@@]3(O)[C@H]4Cc5ccc(O)c6c5[C@@]3(CCN4CC3CC3)[C@H]2O6)ccn1	Oprm1 (Mus musculus, UniProt P42866)	radioligand binding	CHO	with: [3H]naloxone	Ki	0.0006 ± 0.00023 µM
CCCCCCCCCCc1ccc(-c2noc(CCCN)n2)cc1	SPNS2 (Homo sapiens, UniProt Q8IVW8)	S1P export, inhibitor	–	with: NBD-S1P	IC50	~6 µM
OC[C@@]12C[C@@H]1[C@@H](n1cnc3c(NC(C4CC4)C4CC4)nc(Cl)nc31)[C@H](O)[C@@H]2O	HTR2C (Homo sapiens, UniProt P28335)	–	–	with: [3H]mesulergine	Ki	0.0835 µM
CC(=O)N1CCC[C@@H]1C(=O)N[C@@H](C)C(=O)N[C@@H](Cc1ccccc1)B(O)O	Proteasome subunit beta type-3/PSMB7, trypsin-like site (Homo sapiens, UniProt P49720+Q99436)	β2c activity, inhibitor	–	with: Ac-WLR-AMC substrate	IC50	> 10 µM
CCC(=O)Nc1c(NC[C@H](O)[C@H](O)[C@H](O)CO)[nH]c(=O)[nH]c1=O	Bacillus subtilis lumazine synthase	inhibitor	–	pH 7.0	Ki	20 ± 4 µM
c1ccc2c(c1)ccc[n+]2CCCCCCCCCC[n+]1cccc2ccccc21	BJ fibroblasts	cytotoxicity, MTT	–	–	IC50	1230 µM
NCCNCCSc1ccccc1	–	–	urine	100 µg/mL, 30 days, -20 °C	long-term stability	93.7 ± 1.5 % remaining
Cc1cc(O)cc(C)c1C[C@@H]1NC[C@H](CCCCN)NC(=O)[C@H](Cc2ccccc2)NC(=O)[C@@H](CCCNC(=N)N)NC1=O	Oprd1 (Rattus norvegicus, UniProt P33533)	–	–	–	Ki	0.422 ± 0.107 µM
CSCCC(NC(=O)C(NC(=O)C(CO)NC(=O)C(Cc1ccccc1)NC(=O)C1CCCN1C(=O)C1CCCN1C(=O)C(CCCNC(=N)NCCCC1OC(n2cnc3c(N)ncnc32)C(O)C1O)NC(=O)C1CCCN1C(=O)C(C)NC(=O)C(C)NC(=O)C1CCCN1C(C)=O)C(C)O)C(=O)O (centres unmarked)	CARM1 (Homo sapiens, UniProt Q86X55)	enzyme activity, inhibitor	–	–	IC50	0.09 µM
N#Cc1c(C(F)(F)F)cc(-c2ccncc2)nc1SCC(=O)Nc1ncco1	TAAR1 (Homo sapiens, UniProt Q96RJ0)	antagonist	–	–	IC50	9 µM

Some of these lines once more:
SMILES	target or system	test	system	setting	endpoint	value
CCCCCCCCCCc1ccc(-c2noc(CCCN)n2)cc1	SPNS2 (Homo sapiens, UniProt Q8IVW8)	S1P export, inhibitor	–	with: NBD-S1P	IC50	~6 µM
OC[C@@]12C[C@@H]1[C@@H](n1cnc3c(NC(C4CC4)C4CC4)nc(Cl)nc31)[C@H](O)[C@@H]2O	HTR2C (Homo sapiens, UniProt P28335)	–	–	with: [3H]mesulergine	Ki	0.0835 µM
CC(=O)N1CCC[C@@H]1C(=O)N[C@@H](C)C(=O)N[C@@H](Cc1ccccc1)B(O)O	Proteasome subunit beta type-3/PSMB7, trypsin-like site (Homo sapiens, UniProt P49720+Q99436)	β2c activity, inhibitor	–	with: Ac-WLR-AMC substrate	IC50	> 10 µM
